Published values collected from several papers.
Compare with care: the assays were run in different laboratories. “And” joins repeats or separate records; there may be more than shown. ± gives the spread as reported.

Compound | assay | test system | setting | scale | endpoint | value
Nc1nc(NC2CC2)c2ncn([C@H]3C=C[C@@H](CO)C3)c2n1 | – | Tat- transgenic mouse, hippocampus | subcutaneous osmotic pump, dose not given, 5 d | – | drug concentration | 129000 ± 26400 ng/g
Cc1ccc([C@@H]2O[C@H](CO)[C@@H](O)[C@H](O)[C@H]2O)cc1Cc1ccc(-c2ccc(F)cc2)s1 | – | Japanese type 2 diabetes patients | 25 mg, day 2, 24 h urine collection | baseline: baseline | urinary calcium excretion change | 1.31 mg
Cc1cc(-c2nnc(N)nc2-c2ccc(F)cc2)cc(Cl)n1 | item: Hypothyroidism | IO-naive colorectal cancer patients | oral, dose not given, treatment-related, grade 2 | – | patients with immune-mediated AE | 0%
O=C(CCCCCCC(=O)Nc1ccc(CC[18F])cc1)NO | – | athymic nu/nu male mice, LNCaP xenograft, bone | intravenous, 1 h | – | tissue uptake | 11.1 ± 1.6 %ID/g
Cc1nc(C)c(-c2ccnc(Nc3cccc([N+](=O)[O-])c3)n2)s1 | – | octanol/buffer | pH 11 | – | logP | 4.06
O=C(O)CCCOc1ccc([18F])cc1-c1cc(-c2ccccc2C(F)(F)F)n(-c2ccccc2)n1 | gamma counting | male ddY mice, kidney | intravenous, 2.1 MBq, 1 min | – | radioactivity uptake | 3 ± 0.61 SUV
COc1ccc2[nH]c([S+]([O-])Cc3ncc(C)c(OC)c3C)nc2c1 (centres unmarked) | – | healthy male humans | concentration not given, required by protocol | – | procedure-related adverse events | 0%
COc1cc2c3cc1Oc1c(OC)c(OC)cc4c1[C@@H](Cc1ccc(O)c(c1)Oc1ccc(cc1)C[C@@H]3N(C)CC2)N(C)CC4 | – | mouse plasma, K3EDTA | 0 h, 37 °C | – | remaining compound | 100%
CCO[C@H]1CCN(Cc2c(OC)cc(C)c3[nH]ccc23)[C@H](c2ccc(C(=O)O)cc2)C1 | – | PNH patients, active haemolysis | oral, 100 mg, 8 weeks, treatment | – | incidence of abdominal discomfort | 0%
CC(=O)OC[C@H]1OC(OC(C)=O)[C@@H](NC(=O)CN=[N+]=[N-])[C@@H](OC(C)=O)[C@@H]1OC(C)=O (some centres unmarked) | – | C57BL/6 mouse, bone marrow | dose not given, 2 days | baseline: PBS | erythroid precursor cells | no effect
CNC(=O)c1ccc(-c2cnc3ncc(Cc4ccc5ncccc5c4)n3n2)cc1F | – | Japanese patients | oral, 400 mg, any grade | – | Platelet count decreased dose reduction/interruption | 2%
Cl.[2H]C([2H])([2H])CC(=O)c1cnc(NC(=O)C2CC2)cc1Nc1cccc(-c2ncn(C([2H])([2H])[2H])n2)c1OC | geometric mean | human | oral, 100 mg single dose, fasted, liquid | – | AUC(0-24 h) | 9380 ng·h/mL
COC(=O)/C=C/c1cc(C(=O)NCc2ccc(C)cc2)cc(-c2ccc3ncnn3c2)c1 | – | mouse, plasma | 37 °C | – | time to below detection limit | ≤ 30 min
N#Cc1ccc2c(c1)[C@H]1CCCN(C(=O)c3ccc4[nH]cnc4c3)[C@H]1C2 | – | human females | 160 mg, end of trial | – | SHBG level | 31.5 nmol/L
CC1(C)CCC(CN2CCN(c3ccc(C(=O)NS(=O)(=O)c4ccc(NCC5CCOCC5)c([N+](=O)[O-])c4)c(Oc4cnc5[nH]ccc5c4)c3)CC2)=C(c2ccc(Cl)cc2)C1 | – | human | 200 mg/day | – | absolute neutrophil count | 1900 cells/µL
Cn1cc(Nc2nccc(-c3ccc4c(c3)CN(C3COC3)CC[C@H]4NC(=O)c3cn(C(C)(C)C)nn3)n2)cn1 | item: B cell count | human, clinical trial, whole blood | 150 mg twice daily, follow-up | – | percent change from baseline | -2.96%
O=S(=O)(O)Oc1cccc(O)c1O | – | human, cerebrospinal fluid | concentration not given, median | – | CSF concentration | 3.8 nM
O=C(O)Cc1ccccc1Nc1c(Cl)cccc1Cl | – | human liver microsomes | 1 µM | – | scaled intrinsic clearance | 135 mL/min/kg
CCn1ccc2c([C@@](O)(CC)c3ccc(C(F)(F)F)nc3)n(C)nc2c1=O | – | rat Sprague-Dawley male, blood | intravenous, 1 mg/kg | – | CLint,u | 50.5 mL/min/kg

Compound | assay | test system | setting | scale | endpoint | value
N[C@H]1C(O)O[C@H](CO)[C@@H](O)[C@@H]1O (some centres unmarked) | – | aqueous solution | 2 mM, added: glucose | – | osmolality | 0 mOsmol/kg
O=C(CSc1nnc(-c2ccccc2O)n1-c1ccccc1)Nc1cccc(C(=O)O)c1 | – | octanol/buffer | pH 11 | – | logP | -1.65
CC(C)n1c(Nc2cccnc2)nc2cnc(Nc3ccc(N4CCN(C)CC4)cc3)nc21 | item: nodal rhythm | healthy male subjects | oral, 150 mg, study, added: rifampin | – | subjects with adverse event | 7.1%
O=S(=O)(NCc1ccccn1)c1cc(Cl)c(Cl)cc1Cl | – | octanol/buffer | pH 11 | – | logP | 2.01
CCn1cc(C(=O)N2CCOCC2)c(=O)c2cc(NC3Cc4ccccc4C3)cnc21 | – | human, fasted | oral suspension, 1200 mg single dose, arithmetic mean | – | Cmax | 821 ng/mL
Cc1cc(NC2CCN(C(=O)OC3CCN(C(=O)/C=C/CN(C)C)C3)CC2)n2ncc(C(C)C)c2n1 (centres unmarked) | – | patients with advanced solid tumours | dose not given, QD arm, grade 3 or higher | – | patients with Dizziness | 0%
NCCONC(=O)[C@@H]1CC[C@@H]2CN1C(=O)N2OS(=O)(=O)O | item: leading to withdrawal | healthy Chinese men | intravenous, 2 g, treatment-related | – | adverse event incidence | 0%
CCN1/C(=C/C(C)=O)Sc2ccc(F)cc21 | – | cynomolgus monkey | oral, 30 mg/kg, 2 h post-dose | – | mean blood pressure | 87 ± 4 mmHg
CCOc1c([C@H](C)n2nc(C)c3c(N)ncnc32)cc(Cl)c(F)c1[C@@H]1CNC(=O)C1 | – | patients, monotherapy | oral, 45 mg once daily, cycle 1 day 1 | – | AUC(0-last) geometric mean | 16.2 µM·h
CC(C)C[C@H](NC(=O)[C@H](CC(C)C)NC(=O)C(C)(C)NC(=O)[C@@H](NC(=O)[C@H](CCC1CCCCC1)NC(=O)[C@@H]1CCCN1C(=O)c1ccc(F)cc1)[C@H](O)C(C)C)C(=O)NC(C)(C)C(=O)NC(C)(C)C(=O)NCCC(=O)N[C@@H](C)CN(C)C | circular dichroism | phosphate buffer | pH 7.4, 20 °C | – | alpha-helix content | 87.2%
CN1CCN(C(=O)CN(C)S(=O)(=O)c2ccc3ccccc3c2)CC1 | – | octanol/buffer | pH 11, known kinase inactives set | – | logP | 1.95
O=S(=O)(O)Oc1cc([C@H]2Oc3cc(O)cc(O)c3C[C@H]2O)ccc1O | – | human, cerebrospinal fluid | concentration not given, median | – | CSF concentration | 11.9 nM
CCN1CCN(Cc2ccc(Nc3ncc(F)c(-c4cc(F)c5nc6n(c5c4)[C@H](C)CCC6)n3)nc2)CC1 | – | human, plasma | 200 mg single dose, mean | – | Vd/F | 1630 L
FC(F)(F)c1ccc(CNc2ccc(Cc3c[nH]c4ncc(Cl)cc34)cn2)cn1 | – | patients with advanced solid tumours | oral, 1000 mg/day, all patients, all grades | – | decreased appetite incidence | 31%
COC(=O)c1ccc2c(c1)NC(=O)/C2=C(\Nc1ccc(N(C)C(=O)CN2CCN(C)CC2)cc1)c1ccccc1 | – | healthy human | oral, 150 mg single, alone | – | Vd/F | 18800 L
Cc1cc(-c2nccc3c2ccn3CC(=O)Nc2ccc(-c3cnccn3)cn2)ccn1 | – | human | 20 mg once daily, multiple ascending dose | – | post-procedural erythema | 0%
CC(C)(C(=O)N1CCOc2c(C#N)cncc2C1)C(F)F | item: upper abdominal pain | human | oral, 15 mg twice daily, 14 days, multiple ascending dose | – | subjects with adverse event | 0%
NC1(C(=O)N[C@@H](CCO)c2ccc(Cl)cc2)CCN(c2nc[nH]c3nccc2-3)CC1 | – | metastatic CRPC patients | 400 mg b.i.d., any grade, treatment-related, added: enzalutamide 160 mg daily | – | incidence of Dysuria | 14.3%
Cc1ccc(C(=O)N(CCCN)C(c2nc3snc(C)c3c(=O)n2Cc2ccccc2)C(C)C)cc1 (centres unmarked) | – | human patients | intravenous, 13 mg/day | – | patients with CTCAE grade ≥3 events | 33%

Compound | assay | test system | setting | scale | endpoint | value
O=C(Nc1nc2cccc(-c3ccc(CN4CCS(=O)(=O)CC4)cc3)n2n1)C1CC1 | item: epigastric discomfort | human rheumatoid arthritis patients | oral, 75 mg once daily, 4 weeks, regardless of relatedness | – | treatment-emergent adverse events | 0%
CC(C)(C)c1ccc(O)c(CN(Cc2cc(C(C)(C)C)ccc2O)C2CCC(NC(N)=O)CC2)c1 (centres unmarked) | – | C57BL/6 mouse, male, plasma | oral, 10 mg/kg | baseline: oral AUC(0-inf) over intraperitoneal | relative bioavailability | 61%
Cn1cc([C@H]2C[C@H]3CSC(N)=N[C@@]3(c3ccc(F)cc3F)CO2)cn1 | – | male 129/SVE mouse, CSF | subcutaneous, 10 mg/kg, 3 h | – | CSF concentration | 119 nM
O=C(O)C[C@H](O)C[C@H](O)/C=C/c1c(C2CC2)nc2ccccc2c1-c1ccc(F)cc1 | – | FVB wild-type mice, plasma | oral, dose not given, added: rifampicin 20 mg/kg | baseline: vehicle | Cmax increase | 4.59 fold
CCc1cc2ncc(CN3CCN(c4ccc(C(=O)NC)nc4)CC3)cc2[nH]c1=O | – | female rat, blood | oral, 50 mg/kg/day, 4 weeks | baseline: vehicle control | Monocytes count ratio | 0.43
Cc1nc2c([nH]1)c(=O)n(C)c(=O)n2Cc1ccco1 | – | male rat liver microsomes | 50 µM, 3 h, added: DHA-Na 5 mg/L | – | inhibition | 23.5 ± 3.61%
CCNCCNC(=O)c1c(C)[nH]c(/C=C2\C(=O)Nc3ccc(F)cc32)c1C | – | human, serum | 25 mg maintenance dose | – | serum concentration | 17.5 ng/mL
CC1(CNC(=O)[C@H](CN)NC(=O)c2ccc(-c3ccc(Br)cc3)cc2)NC(=O)NC1=O (some centres unmarked) | – | octanol/buffer | pH 11 | – | logP | 0.61
COc1ccc([C@@H](O)c2cc(-c3ncnc4cc(N5CCOCC5)ccc34)c(F)cc2Cl)nn1 | – | locally advanced rectal cancer patients | 250 mg, added: capecitabine and radiotherapy | – | diarrhoea TEAE incidence | 83%
CCc1cc(C(=O)NC)c2nccc(N3CCc4c(cc(Cn5ccnc5)cc4-c4cn(C)nc4C(F)(F)F)C3=O)c2c1 | – | Sprague Dawley rat | oral, 100 mg/kg once daily, day 2, 7-day toxicology study | baseline: day 1 | body weight change | 2.4%
COc1ccc2c(c1)CN(C(=O)CCN1CCC(Cc3ccccc3)CC1)CC[S@@+]2[O-] | telemetry | conscious male beagle dogs | intravenous, 4 mg/kg, 24 h | – | PQ interval | 91 ± 10 ms
O=C(O)CCC(=O)O.[2H]C([2H])([2H])Oc1cc(C)c2[nH]ccc2c1CN1CC[C@@H](C2CC2)C[C@H]1c1ccc(C(=O)O)cc1 | LC-MS/MS, mean | human, plasma | 400 mg, single dose, fasting | – | Vd/F | 120 L
CC(C)Nc1nc2cc(Cl)c(Cl)cc2n1[C@H]1O[C@@H](CO)[C@H](O)[C@@H]1O | population PK model | human | oral, 70 kg body weight | – | Vc/F | 17.8 L
COc1ccc2nc(-c3ccccn3)c(N(C)c3ccc(F)cc3)n2c1 | – | male CD-1 mouse, fasted, plasma | oral, 50 mg/kg, added: 1-aminobenzotriazole 50 mg/kg | – | CL/F | 944 mL/min/kg and 1170 mL/min/kg
COc1cc(OC)c(NC(=O)CSc2nnc(-c3ccncc3)n2C)cc1Cl | – | octanol/buffer | pH 11, known kinase inactives set | – | logP | 1.76
Cc1ccc(Sc2ccccc2N2CCNCC2)c(C)c1 | – | healthy adult men | oral, 20 mg single dose, treatment-emergent adverse events | – | diarrhoea incidence | 0%
[O]=[Co].[O]=[Co][O][Co]=[O] | – | Crl:CD(SD) rat male, blood | oral, 734 mg Co/kg/day, 90 days | – | haematocrit | 60%
Cc1nc(-c2ccc(OCC(C)C)c(C#N)c2)sc1C(=O)O | – | healthy Chinese subjects | oral, 40 mg, fed | – | moderate hepatic event incidence | 2.5%

Excerpt of the above:
Compound | assay | test system | setting | scale | endpoint | value
CC(C)n1c(Nc2cccnc2)nc2cnc(Nc3ccc(N4CCN(C)CC4)cc3)nc21 | item: nodal rhythm | healthy male subjects | oral, 150 mg, study, added: rifampin | – | subjects with adverse event | 7.1%
O=S(=O)(NCc1ccccn1)c1cc(Cl)c(Cl)cc1Cl | – | octanol/buffer | pH 11 | – | logP | 2.01
CCn1cc(C(=O)N2CCOCC2)c(=O)c2cc(NC3Cc4ccccc4C3)cnc21 | – | human, fasted | oral suspension, 1200 mg single dose, arithmetic mean | – | Cmax | 821 ng/mL
Cc1cc(NC2CCN(C(=O)OC3CCN(C(=O)/C=C/CN(C)C)C3)CC2)n2ncc(C(C)C)c2n1 (centres unmarked) | – | patients with advanced solid tumours | dose not given, QD arm, grade 3 or higher | – | patients with Dizziness | 0%
NCCONC(=O)[C@@H]1CC[C@@H]2CN1C(=O)N2OS(=O)(=O)O | item: leading to withdrawal | healthy Chinese men | intravenous, 2 g, treatment-related | – | adverse event incidence | 0%
